Assay results collected from several papers.
Every numbered part comes from another study and shows a few of its results, in no order.
UniProt P30291, sequence (whole entry, looked up): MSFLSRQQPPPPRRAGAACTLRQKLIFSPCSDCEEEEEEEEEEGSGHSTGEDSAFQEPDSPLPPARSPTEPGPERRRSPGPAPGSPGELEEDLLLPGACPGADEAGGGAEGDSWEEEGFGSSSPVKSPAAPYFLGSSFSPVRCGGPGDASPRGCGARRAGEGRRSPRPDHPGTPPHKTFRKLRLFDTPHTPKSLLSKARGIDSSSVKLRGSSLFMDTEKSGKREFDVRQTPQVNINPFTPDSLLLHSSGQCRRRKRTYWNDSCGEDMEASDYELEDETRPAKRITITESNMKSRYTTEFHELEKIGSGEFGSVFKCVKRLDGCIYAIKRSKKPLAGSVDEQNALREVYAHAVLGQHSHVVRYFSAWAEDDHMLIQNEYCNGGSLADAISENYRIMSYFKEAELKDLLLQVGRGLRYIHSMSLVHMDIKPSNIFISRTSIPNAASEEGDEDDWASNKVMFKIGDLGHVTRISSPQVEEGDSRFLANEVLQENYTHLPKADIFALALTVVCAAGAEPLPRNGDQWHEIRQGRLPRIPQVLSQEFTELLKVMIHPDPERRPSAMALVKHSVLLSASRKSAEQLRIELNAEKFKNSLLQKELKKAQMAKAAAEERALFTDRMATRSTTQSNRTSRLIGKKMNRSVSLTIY
UniProt P00519, sequence (whole entry, unmodified, looked up): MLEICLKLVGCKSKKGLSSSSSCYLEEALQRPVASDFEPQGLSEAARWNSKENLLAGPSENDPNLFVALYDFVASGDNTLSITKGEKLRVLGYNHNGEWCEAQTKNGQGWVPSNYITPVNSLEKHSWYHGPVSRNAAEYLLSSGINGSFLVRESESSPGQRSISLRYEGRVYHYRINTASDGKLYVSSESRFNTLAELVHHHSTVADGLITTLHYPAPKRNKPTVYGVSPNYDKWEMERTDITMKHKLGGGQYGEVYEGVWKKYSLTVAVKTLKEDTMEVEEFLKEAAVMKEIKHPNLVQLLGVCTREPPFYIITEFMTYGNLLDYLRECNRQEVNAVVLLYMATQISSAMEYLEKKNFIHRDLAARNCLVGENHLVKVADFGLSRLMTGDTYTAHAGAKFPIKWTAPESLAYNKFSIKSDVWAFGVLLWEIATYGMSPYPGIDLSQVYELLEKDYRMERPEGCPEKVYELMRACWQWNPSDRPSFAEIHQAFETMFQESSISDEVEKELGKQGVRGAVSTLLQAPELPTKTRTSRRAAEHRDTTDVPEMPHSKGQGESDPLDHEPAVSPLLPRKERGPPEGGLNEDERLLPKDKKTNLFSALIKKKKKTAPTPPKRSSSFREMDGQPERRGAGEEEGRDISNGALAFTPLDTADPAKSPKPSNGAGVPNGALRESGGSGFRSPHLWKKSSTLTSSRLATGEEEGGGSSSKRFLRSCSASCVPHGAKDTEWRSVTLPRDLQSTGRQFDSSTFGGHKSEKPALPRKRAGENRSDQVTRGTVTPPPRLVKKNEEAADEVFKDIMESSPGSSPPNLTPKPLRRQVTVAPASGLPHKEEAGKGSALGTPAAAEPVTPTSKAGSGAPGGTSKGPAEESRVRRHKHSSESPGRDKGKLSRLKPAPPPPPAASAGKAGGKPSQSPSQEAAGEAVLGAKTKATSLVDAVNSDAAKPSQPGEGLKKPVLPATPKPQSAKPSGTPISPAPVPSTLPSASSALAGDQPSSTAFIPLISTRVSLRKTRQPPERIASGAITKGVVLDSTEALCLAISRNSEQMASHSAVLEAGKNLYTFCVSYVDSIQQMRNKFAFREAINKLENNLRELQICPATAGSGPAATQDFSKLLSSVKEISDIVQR
UniProt Q9UL54, sequence (whole entry, looked up): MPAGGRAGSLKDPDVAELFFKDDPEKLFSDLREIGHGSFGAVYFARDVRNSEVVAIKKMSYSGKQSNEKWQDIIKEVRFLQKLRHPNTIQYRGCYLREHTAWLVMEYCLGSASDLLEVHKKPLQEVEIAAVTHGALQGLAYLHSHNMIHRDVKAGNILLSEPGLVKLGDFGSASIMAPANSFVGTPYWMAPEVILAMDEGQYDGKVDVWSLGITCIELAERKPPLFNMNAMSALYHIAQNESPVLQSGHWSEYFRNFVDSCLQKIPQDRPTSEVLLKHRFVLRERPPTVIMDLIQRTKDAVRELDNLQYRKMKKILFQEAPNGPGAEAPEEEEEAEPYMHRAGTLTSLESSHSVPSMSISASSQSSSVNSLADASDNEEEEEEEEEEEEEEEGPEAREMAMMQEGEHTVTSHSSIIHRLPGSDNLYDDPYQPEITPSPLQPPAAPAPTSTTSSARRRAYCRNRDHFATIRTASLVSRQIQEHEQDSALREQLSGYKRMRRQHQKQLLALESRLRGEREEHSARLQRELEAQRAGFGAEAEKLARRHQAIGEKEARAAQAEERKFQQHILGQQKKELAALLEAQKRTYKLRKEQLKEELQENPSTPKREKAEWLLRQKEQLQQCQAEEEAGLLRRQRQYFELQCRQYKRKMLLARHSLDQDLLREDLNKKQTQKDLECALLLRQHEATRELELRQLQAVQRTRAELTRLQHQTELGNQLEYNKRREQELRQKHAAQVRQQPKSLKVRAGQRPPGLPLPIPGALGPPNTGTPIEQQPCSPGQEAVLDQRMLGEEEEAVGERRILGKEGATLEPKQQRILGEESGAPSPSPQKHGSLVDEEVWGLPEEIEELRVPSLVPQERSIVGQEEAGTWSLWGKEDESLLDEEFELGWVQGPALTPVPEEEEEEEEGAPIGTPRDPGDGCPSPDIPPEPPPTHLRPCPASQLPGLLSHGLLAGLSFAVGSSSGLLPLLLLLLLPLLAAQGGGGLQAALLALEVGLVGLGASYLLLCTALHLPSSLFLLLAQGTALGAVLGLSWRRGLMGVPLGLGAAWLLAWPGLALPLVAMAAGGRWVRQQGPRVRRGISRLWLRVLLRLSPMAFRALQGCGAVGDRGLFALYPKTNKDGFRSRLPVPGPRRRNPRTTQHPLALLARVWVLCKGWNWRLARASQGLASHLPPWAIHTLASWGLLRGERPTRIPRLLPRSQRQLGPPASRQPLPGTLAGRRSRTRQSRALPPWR
UniProt P53671, sequence (whole entry, looked up): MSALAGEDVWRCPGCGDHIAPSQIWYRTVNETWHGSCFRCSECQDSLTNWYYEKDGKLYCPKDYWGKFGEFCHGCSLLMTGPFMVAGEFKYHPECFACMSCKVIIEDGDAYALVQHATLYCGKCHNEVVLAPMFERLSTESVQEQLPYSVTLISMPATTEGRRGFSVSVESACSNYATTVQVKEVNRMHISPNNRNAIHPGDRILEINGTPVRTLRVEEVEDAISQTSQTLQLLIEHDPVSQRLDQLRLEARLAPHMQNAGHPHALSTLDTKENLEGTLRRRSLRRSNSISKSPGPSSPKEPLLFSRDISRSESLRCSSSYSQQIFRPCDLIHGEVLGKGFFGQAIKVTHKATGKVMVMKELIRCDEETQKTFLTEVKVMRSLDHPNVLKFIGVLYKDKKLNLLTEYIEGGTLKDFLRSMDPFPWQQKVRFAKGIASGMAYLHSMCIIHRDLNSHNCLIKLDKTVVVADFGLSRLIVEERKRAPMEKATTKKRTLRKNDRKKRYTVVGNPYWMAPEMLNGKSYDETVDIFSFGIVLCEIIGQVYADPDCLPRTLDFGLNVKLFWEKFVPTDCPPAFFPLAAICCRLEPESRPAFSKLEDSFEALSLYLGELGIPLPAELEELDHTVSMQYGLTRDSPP
UniProt Q15349, sequence (whole entry, looked up): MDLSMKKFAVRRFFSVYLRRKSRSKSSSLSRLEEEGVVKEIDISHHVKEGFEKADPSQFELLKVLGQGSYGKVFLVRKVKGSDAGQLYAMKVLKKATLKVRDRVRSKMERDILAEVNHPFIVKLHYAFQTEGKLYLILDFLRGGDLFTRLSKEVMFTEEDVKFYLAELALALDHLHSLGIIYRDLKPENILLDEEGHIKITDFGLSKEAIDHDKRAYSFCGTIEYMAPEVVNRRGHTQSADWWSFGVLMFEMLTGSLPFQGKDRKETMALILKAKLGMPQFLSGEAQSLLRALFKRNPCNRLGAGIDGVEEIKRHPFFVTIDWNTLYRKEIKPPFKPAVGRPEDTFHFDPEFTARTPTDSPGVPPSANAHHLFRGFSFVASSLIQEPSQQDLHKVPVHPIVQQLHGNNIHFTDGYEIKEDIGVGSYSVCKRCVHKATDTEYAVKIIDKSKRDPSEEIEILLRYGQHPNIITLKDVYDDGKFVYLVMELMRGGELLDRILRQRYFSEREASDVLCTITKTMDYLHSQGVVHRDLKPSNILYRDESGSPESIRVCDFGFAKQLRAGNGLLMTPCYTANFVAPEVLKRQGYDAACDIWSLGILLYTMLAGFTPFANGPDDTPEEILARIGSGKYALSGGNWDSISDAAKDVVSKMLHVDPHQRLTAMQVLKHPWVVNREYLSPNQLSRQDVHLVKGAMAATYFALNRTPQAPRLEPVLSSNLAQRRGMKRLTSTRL
UniProt Q9Y6M4, sequence (whole entry, looked up): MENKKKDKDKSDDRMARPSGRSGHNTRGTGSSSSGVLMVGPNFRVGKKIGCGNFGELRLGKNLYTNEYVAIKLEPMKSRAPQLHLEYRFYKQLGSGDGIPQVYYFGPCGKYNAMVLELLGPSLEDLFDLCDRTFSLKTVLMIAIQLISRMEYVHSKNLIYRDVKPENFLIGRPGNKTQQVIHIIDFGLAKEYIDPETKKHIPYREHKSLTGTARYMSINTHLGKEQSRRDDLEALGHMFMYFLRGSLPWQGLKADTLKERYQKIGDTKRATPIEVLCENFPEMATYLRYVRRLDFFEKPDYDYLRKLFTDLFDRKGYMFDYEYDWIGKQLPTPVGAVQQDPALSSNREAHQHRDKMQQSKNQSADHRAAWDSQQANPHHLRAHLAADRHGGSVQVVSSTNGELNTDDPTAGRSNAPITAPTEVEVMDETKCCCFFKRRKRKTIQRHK

Set 1
Compound: COc1ccc2c(O[C@@H]3C[C@H]4C(=O)N[C@]5(C(=O)O)CC5/C=C\CCCCC[C@H](NC(=O)OC5CCCC5)C(=O)N4C3)cc(-c3csc(NC(=O)C(C)C)n3)nc2c1C (stereo partly drawn)
Read-out: cell-free assay
Technique: competition with immobilised ligand
Concentration: 1 µM
| target | remaining binding [%] |
| --- | --- |
| EGFR (Homo sapiens, UniProt P00533, L858R) | 100 |
| WEE1 (Homo sapiens, UniProt P30291) | 100 |
| CSNK1D (Homo sapiens, UniProt P48730) | 100 |
| WNK3 (Homo sapiens, UniProt Q9BYP7) | 100 |
| LIM domain kinase 2 (LIMK2, Homo sapiens, UniProt P53671) | 100 |
| STK10 (Homo sapiens, UniProt O94804) | 100 |
| Tyrosine-protein kinase ABL1, non-phosphorylated (ABL1, Homo sapiens, UniProt P00519, F317L) | 75 |
| STK16 (Homo sapiens, UniProt O75716) | 100 |

Set 2
Structure (SMILES): CCC(=O)Nc1ccc2ncnc(Nc3cccc(Br)c3)c2c1
Read-out: enzyme activity
Mode: inhibitor
Concentration: 0.5 µM
Baseline: control
| target | remaining activity [%] |
| --- | --- |
| MAP3K14 (Homo sapiens, UniProt Q99558) | 116 |
| ABL2 (Homo sapiens, UniProt P42684) | 96.6 |
| EPHA3 (Homo sapiens, UniProt P29320) | 106 |
| LCK (Homo sapiens, UniProt P06239) | 93.1 |
| TBK1 (Homo sapiens, UniProt Q9UHD2) | 95.6 |
| NEK6 (Homo sapiens, UniProt Q9HC98) | 105 |
| WEE1 (Homo sapiens, UniProt P30291) | 80.2 |
| MAPK3 (Homo sapiens, UniProt P27361) | 101 |
| CSNK1G3 (Homo sapiens, UniProt Q9Y6M4) | 91.6 |
| GRK7 (Homo sapiens, UniProt Q8WTQ7) | 105 |
| MERTK (Homo sapiens, UniProt Q12866) | 83.9 |
| ARAF (Homo sapiens, UniProt P10398) | 93.4 |
| TAOK2 (Homo sapiens, UniProt Q9UL54) | 91.4 |
| RPS6KA2 (Homo sapiens, UniProt Q15349) | 87.2 |
| NEK1 (Homo sapiens, UniProt Q96PY6) | 76.9 |

Set 3
Cell line: HaCaT
Concentration: 100 µM
Time: 18 h
| Structure (SMILES) | viability [%] |
| --- | --- |
| Nc1ccc2cc3ccc(N)cc3nc2c1 | 27.8 |
| CC[C@H](C)C(=O)O[C@H]1CCC=C2C=C[C@H](C)[C@H](CC[C@@H]3C[C@@H](O)CC(=O)O3)[C@H]21 | 40.7 |
| COc1ccc2[nH]c(SCc3ncc(C)c(OC)c3C)nc2c1 | 72.6 |
| CC(=O)NS(=O)(=O)c1ccc(NC(=O)c2ccccc2C(=O)O)cc1 | 88.7 |
| CC1(C)C(C=C(Cl)Cl)C1C(=O)OCc1cccc(Oc2ccccc2)c1 (stereo not drawn) | 116 |
| OC[C@H]1O[C@@H](O[C@@H]2[C@@H](CO)OC(O)(CO)[C@H]2O)[C@H](O)[C@@H](O)[C@H]1O (mixture of isomers) | 110 |
| O=C(O)c1ccccc1Nc1cccc(C(F)(F)F)c1 | 93.7 |
| CC(C)(CO)[C@@H](O)C(=O)NCCCO | 118 |

Set 4
Host: mouse
Medium: microsomes or S9
Concentration: 2 µM
Time: 0.5 h
| SMILES | remaining compound |
| --- | --- |
| CCC(C)N(CC(=O)N1CCN(c2ccc(-c3ccc(C)cc3)nn2)CC1)C(=O)c1ccccc1F (stereo not drawn) | 0.395% |
| O=C(/C=C/c1ccc(O)cc1)NCCc1ccc(O)cc1 | 84.1% |
| COc1ccc2c(c1)CCC(N1CCCCC1)C2O (stereo not drawn) | 59.9% |
| CC1CCC(NC(=O)c2ccc(CN3C(=O)NC4(CCS(=O)(=O)CC4)C3=O)cc2)CC1 (stereo not drawn) | 66.1% |
| CCC(CN1CCCC1)n1cncc1-c1cnc(N2CCC(C)CC2)nc1 (stereo not drawn) | 62.5% |

Repeated from above (set 2):
| target | remaining activity [%] |
| --- | --- |
| NEK1 (Homo sapiens, UniProt Q96PY6) | 76.9 |
| WEE1 (Homo sapiens, UniProt P30291) | 80.2 |
| MAPK3 (Homo sapiens, UniProt P27361) | 101 |
| TAOK2 (Homo sapiens, UniProt Q9UL54) | 91.4 |
